{"data": "Published values of several laboratories", "PARP1": "Poly [ADP-ribose] polymerase 1 (PARP1, Homo sapiens, UniProt P09874)", "FAAH": "Fatty-acid amide hydrolase 1 (FAAH, Homo sapiens, UniProt O00519)", "note": "Each line is one published result; not all experiments were run side by side. Numbers after ± are the reported error.", "UniProt P09874, sequence (whole entry, looked up)": "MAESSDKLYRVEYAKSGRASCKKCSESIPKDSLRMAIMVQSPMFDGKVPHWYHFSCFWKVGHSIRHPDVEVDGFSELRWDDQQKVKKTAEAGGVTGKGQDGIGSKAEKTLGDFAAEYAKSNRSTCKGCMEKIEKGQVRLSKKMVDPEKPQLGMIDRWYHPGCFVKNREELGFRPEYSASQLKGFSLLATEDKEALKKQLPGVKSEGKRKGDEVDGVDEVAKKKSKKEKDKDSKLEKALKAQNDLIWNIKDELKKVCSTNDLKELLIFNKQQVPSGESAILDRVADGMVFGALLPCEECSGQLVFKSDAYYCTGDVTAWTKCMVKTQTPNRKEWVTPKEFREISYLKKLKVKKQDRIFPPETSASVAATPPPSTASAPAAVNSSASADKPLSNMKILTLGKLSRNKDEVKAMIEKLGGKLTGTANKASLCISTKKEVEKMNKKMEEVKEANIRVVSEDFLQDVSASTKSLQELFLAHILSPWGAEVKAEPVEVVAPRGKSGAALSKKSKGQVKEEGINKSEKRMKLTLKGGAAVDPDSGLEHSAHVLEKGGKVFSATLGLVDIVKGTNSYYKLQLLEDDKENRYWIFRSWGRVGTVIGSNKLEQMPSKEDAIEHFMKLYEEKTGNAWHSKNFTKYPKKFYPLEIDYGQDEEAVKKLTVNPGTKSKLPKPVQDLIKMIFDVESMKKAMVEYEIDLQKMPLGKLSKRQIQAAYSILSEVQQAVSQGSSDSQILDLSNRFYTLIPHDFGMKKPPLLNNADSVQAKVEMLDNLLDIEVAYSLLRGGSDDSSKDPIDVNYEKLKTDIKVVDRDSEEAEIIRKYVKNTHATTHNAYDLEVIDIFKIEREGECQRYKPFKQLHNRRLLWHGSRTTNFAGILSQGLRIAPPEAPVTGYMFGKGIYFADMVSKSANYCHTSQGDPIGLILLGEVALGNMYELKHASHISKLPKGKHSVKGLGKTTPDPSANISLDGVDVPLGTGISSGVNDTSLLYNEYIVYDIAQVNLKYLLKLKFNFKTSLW", "UniProt O00519, sequence (whole entry, looked up)": "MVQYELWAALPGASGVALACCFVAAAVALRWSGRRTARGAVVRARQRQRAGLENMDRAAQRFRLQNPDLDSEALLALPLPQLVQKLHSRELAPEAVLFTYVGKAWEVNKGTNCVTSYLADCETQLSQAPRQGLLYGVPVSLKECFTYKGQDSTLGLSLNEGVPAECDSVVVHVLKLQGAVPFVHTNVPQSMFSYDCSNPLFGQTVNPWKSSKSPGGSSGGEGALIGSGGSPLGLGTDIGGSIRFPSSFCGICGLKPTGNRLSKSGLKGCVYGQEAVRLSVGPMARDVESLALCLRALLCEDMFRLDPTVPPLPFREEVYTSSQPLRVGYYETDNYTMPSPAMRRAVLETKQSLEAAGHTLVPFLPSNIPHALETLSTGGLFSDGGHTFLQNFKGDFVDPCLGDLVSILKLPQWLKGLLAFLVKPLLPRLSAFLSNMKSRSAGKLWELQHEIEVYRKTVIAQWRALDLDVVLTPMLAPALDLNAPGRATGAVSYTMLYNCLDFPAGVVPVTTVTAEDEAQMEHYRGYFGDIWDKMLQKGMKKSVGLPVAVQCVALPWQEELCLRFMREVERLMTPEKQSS", "UniProt P32745, sequence (whole entry, looked up)": "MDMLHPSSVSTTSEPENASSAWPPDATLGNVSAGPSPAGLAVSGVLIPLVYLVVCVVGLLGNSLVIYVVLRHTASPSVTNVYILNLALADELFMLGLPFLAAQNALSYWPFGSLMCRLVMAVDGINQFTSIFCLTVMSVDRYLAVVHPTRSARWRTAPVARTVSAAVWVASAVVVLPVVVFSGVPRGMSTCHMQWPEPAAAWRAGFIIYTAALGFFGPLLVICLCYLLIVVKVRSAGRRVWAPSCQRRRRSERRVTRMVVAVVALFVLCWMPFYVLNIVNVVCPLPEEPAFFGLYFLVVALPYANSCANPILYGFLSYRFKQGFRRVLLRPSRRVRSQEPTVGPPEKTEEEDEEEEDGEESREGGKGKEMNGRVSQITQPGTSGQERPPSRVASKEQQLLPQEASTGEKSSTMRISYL", "UniProt Q9NTG7, sequence (whole entry, looked up)": "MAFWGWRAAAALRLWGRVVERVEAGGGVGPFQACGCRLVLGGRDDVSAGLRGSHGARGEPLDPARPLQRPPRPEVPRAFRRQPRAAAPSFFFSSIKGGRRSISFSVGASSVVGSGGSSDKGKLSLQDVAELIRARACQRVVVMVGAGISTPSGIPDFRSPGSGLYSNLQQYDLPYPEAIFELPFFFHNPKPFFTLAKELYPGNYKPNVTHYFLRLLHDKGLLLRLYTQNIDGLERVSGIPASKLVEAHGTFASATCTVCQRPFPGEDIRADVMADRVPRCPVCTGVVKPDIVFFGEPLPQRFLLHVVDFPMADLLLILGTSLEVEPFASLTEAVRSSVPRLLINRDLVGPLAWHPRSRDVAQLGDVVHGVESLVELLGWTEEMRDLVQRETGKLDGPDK", "UniProt P17948, sequence (whole entry, looked up)": "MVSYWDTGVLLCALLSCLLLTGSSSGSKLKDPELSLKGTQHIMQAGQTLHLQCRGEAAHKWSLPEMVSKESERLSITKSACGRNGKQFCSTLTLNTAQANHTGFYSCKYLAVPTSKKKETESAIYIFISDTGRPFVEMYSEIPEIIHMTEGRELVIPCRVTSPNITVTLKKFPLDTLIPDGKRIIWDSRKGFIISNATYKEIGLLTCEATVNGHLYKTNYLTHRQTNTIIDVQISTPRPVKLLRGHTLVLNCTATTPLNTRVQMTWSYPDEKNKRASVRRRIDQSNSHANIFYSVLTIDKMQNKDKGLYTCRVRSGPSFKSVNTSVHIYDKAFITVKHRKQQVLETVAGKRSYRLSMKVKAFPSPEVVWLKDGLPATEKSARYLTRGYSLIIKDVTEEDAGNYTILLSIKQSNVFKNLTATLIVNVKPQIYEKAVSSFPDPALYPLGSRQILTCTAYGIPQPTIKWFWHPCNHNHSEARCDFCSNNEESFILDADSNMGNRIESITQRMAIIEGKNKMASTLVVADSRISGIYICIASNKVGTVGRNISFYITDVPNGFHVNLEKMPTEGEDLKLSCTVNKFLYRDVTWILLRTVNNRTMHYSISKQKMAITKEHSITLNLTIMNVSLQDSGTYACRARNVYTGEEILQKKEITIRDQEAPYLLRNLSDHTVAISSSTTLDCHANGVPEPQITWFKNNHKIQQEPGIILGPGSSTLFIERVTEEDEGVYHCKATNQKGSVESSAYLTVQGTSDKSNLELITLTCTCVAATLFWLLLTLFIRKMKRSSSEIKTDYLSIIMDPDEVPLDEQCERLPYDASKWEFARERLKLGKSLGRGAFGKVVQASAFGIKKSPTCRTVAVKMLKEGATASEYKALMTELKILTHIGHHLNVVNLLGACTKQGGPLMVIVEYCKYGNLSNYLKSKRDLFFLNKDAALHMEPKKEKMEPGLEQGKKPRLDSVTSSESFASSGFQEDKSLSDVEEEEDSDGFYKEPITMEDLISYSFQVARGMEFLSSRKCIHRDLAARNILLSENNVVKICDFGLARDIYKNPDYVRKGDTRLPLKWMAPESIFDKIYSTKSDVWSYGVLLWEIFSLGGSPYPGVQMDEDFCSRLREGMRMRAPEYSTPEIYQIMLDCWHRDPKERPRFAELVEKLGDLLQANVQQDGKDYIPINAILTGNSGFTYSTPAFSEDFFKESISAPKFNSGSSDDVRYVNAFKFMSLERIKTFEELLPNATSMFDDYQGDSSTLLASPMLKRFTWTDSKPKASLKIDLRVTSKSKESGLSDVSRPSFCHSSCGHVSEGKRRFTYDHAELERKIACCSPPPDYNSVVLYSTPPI", "UniProt P10635, sequence (whole entry, looked up)": "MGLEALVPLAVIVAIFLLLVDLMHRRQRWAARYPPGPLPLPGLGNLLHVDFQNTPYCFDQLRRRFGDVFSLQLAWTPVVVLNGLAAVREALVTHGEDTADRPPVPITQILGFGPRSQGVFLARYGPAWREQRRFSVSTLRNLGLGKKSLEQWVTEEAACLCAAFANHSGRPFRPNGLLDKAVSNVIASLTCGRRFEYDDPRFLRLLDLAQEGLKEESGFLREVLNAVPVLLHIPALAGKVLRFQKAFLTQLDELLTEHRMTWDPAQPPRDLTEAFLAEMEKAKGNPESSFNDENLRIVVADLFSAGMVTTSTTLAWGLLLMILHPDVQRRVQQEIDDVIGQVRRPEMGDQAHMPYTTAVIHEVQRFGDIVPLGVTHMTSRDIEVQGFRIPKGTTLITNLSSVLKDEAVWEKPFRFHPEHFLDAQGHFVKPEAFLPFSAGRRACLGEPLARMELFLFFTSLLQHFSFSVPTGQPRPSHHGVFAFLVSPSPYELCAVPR", "UniProt P04798, sequence (whole entry, looked up)": "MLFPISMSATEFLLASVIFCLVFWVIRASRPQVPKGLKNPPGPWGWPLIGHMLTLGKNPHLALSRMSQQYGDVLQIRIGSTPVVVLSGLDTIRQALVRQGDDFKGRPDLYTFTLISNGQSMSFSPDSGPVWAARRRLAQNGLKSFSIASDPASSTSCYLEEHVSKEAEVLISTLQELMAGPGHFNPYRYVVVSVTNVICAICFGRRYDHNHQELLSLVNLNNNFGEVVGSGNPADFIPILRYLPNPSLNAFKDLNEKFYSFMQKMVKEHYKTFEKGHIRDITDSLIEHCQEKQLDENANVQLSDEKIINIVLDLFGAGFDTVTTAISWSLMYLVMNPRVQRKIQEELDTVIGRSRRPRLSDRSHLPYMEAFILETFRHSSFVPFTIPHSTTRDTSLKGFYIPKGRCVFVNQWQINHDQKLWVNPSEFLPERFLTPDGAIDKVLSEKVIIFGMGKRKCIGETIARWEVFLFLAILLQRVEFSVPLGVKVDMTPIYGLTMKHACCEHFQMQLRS", "UniProt P00772, sequence (whole entry, looked up)": "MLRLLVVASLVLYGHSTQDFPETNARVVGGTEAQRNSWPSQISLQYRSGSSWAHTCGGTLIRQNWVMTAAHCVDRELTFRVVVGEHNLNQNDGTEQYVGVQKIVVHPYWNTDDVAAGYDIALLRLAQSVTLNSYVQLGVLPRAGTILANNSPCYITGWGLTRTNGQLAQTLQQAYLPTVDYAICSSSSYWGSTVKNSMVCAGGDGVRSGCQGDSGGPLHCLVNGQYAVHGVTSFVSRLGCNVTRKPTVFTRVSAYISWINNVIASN"}
{"Substance": "O=C(Nc1cc(Cl)c(F)c(Cl)c1)c1cc(S(=O)(=O)N2CCOCC2)c(Cl)cc1Cl", "target": "LPAR3 (Homo sapiens, UniProt Q9UBY5)", "assay": "Ca2+ mobilization, antagonist", "test system": "RH7777", "conditions": "added: LPA at EC50", "IC50 [µM]": "> 100"}
{"Substance": "C=C(C)CCOP(=O)(O)OP(=O)(O)OP(=O)(O)OC[C@H]1O[C@@H](n2cnc3c(N)ncnc32)[C@H](O)[C@@H]1O", "target": "MAP3K5 (Homo sapiens, UniProt Q99683)", "assay": "enzyme activity, inhibitor, HotSpot kinase", "conditions": "added: ATP 1 µM", "IC50 [µM]": 3.4}
{"Substance": "Cc1cc(Cn2cnc3c2C[C@@H](C(=O)O)N(C(=O)C(c2ccccc2)c2ccccc2)C3)ccc1N(C)C", "target": "Type-2 angiotensin II receptor (Rattus norvegicus, UniProt P35351)", "assay": "ligand displacement, radioligand", "conditions": "pH 7.4, cell membranes", "IC50 [µM]": 0.02}
{"Substance": "CCCN1CCC(c2cccc(S(C)(=O)=O)c2)CC1", "target": "Cytochrome P450 2D6 (CYP2D6, Homo sapiens, UniProt P10635)", "assay": "enzyme activity, inhibitor", "test system": "human, liver microsomes", "conditions": "2 h, pH 7.4, with preincubation", "IC50 [µM]": 5.5}
{"Substance": "O=c1[nH]c2ccccc2n1C1CCN(CCCC(c2ccc(F)cc2)c2ccc(F)cc2)CC1", "target": "ABCC1 (Homo sapiens, UniProt P33527)", "assay": "efflux, inhibitor", "test system": "SupT1-Vin overexpressing ABCC1", "conditions": "added: DiOC2(3) 100 nM", "IC50 [µM]": "1.9 ± 0.7"}
{"Substance": "CCCCCCCCCCCCCC(=S)NCCCCC(NC(=O)OCc1ccccc1)C(=O)Nc1ccccc1 (stereo not shown)", "target": "SIRT3 (Homo sapiens, UniProt Q9NTG7)", "assay": "deacetylase activity, inhibitor", "conditions": "no pre-incubation, added: H3K9-Ac peptide substrate", "IC50 [µM]": 77}
{"Substance": "O=c1c2ccccc2nc(NN=Cc2ccc(O)cc2)n1-c1ccccc1", "target": "PARP1", "assay": "enzyme activity", "IC50 [µM]": 0.0449}
{"Substance": "Clc1cc(Cl)c(OC2CC2)c(CN[C@H]2CCCN(c3nc4nc(Cl)ccc4[nH]3)C2)c1", "target": "Methionyl-tRNA synthetase, putative (Trypanosoma brucei brucei, UniProt Q38C91)", "assay": "enzyme activity, inhibitor", "IC50 [µM]": "> 0.3"}
{"Substance": "COC(=O)/C=C/c1cc(O)ccc1O", "target": "FLT1 (Homo sapiens, UniProt P17948)", "IC50 [µM]": "> 10"}
{"Substance": "CN1CCC2(CC1)c1ccccc1N(Cc1ccc(C(=O)NO)s1)C2c1ccc(Cl)cc1 (stereo not shown)", "target": "Histone deacetylase 8 (Schistosoma mansoni, UniProt A5H660)", "assay": "enzyme activity, inhibitor, Fluor-de-Lys", "conditions": "added: Fluor-de-Lys substrate 50 µM", "IC50 [µM]": "0.4 ± 0.11"}
{"Substance": "CC(C)NCc1ccc(C[C@@H]2NC(=O)[C@H](N(C)C(=O)c3ccc4ccccc4c3)NC(=O)[C@H](Cc3ccccc3)NC(=O)[C@@H](N)CSSC[C@@H](C(=O)N[C@H](C(N)=O)[C@@H](C)O)NC(=O)[C@H](Cc3ccccc3)NC2=O)cc1", "target": "SSTR3 (Homo sapiens, UniProt P32745)", "assay": "ligand displacement, radioligand", "conditions": "cell membranes", "IC50 [µM]": 0.848}
{"Substance": "COC(=O)c1cc2c(C(F)(F)F)cc(-c3ccccc3)cc2n1O", "target": "LDHB (Homo sapiens, UniProt P07195)", "assay": "inhibitor, NADH fluorescence", "conditions": "NADH competition, added: 1440 µM pyruvate, 40 µM NADH", "IC50 [µM]": "55.8 ± 7.1"}
{"Substance": "COc1ccccc1Cn1cc(COC(=O)NC2CCCCC2)nn1", "target": "FAAH", "assay": "enzyme activity, inhibitor, fluorescence", "conditions": "cell membranes", "IC50 [µM]": 0.337}
{"Substance": "CCCC(=O)N[C@@H](C)C(=O)N[C@H](C(=O)N[C@@H]1C(=O)N[C@@H](CC(C)C)C(=O)N[C@H]2CC[C@@H](O)N(C2=O)[C@@H](Cc2ccccc2)C(=O)N(C)[C@@H](Cc2ccc(O)cc2)C(=O)N[C@@H](C(C)C)C(=O)O[C@@H]1C)[C@H](C)O", "target": "CELA1 (Sus scrofa, UniProt P00772)", "assay": "enzyme activity, inhibitor", "conditions": "with preincubation", "IC50 [µM]": 0.24}
{"Substance": "C#Cc1ccc2c(C(F)(F)F)cc(=O)oc2c1", "target": "Cytochrome P450 1A1 (CYP1A1, Homo sapiens, UniProt P04798)", "assay": "enzyme activity, inhibitor, fluorescence", "conditions": "6 min, pH 7.6", "IC50 [µM]": 14.3}
{"Substance": "cyclohexylthiourea", "target": "Urea transporter 2 (Rattus norvegicus, UniProt Q62668)", "assay": "urea transport", "test system": "MDCK expressing YFP and AQP1", "conditions": "20 min, added: 800 mM urea gradient", "IC50 [µM]": "3700 ± 200"}
{"Substance": "COc1cccc2cc(-c3nnc(SCC(=O)Nc4ccc(C)cc4)n3-c3ccccc3)oc12", "target": "fungal tyrosinase", "assay": "enzyme activity, inhibitor, dopachrome absorbance", "conditions": "pH 6.8, 37 °C, added: L-tyrosine substrate", "IC50 [µM]": "1.7 ± 3.93"}
{"Substance": "COC(=O)c1ccc(O)cc1", "target": "FAAH", "assay": "enzyme activity, inhibitor, fluorimetric", "conditions": "60 min preincubation, recombinant enzyme, added: OMP substrate 50 µM", "IC50 [µM]": "> 100"}
{"Substance": "NC(=O)c1cccc2c1O[C@H](CO)CO2", "target": "PARP1", "IC50 [µM]": "> 5"}
{"note": "Excerpt of the above:"}
{"Substance": "cyclohexylthiourea", "target": "Urea transporter 2 (Rattus norvegicus, UniProt Q62668)", "assay": "urea transport", "test system": "MDCK expressing YFP and AQP1", "conditions": "20 min, added: 800 mM urea gradient", "IC50 [µM]": "3700 ± 200"}
